# Results pooled from the literature.
# Parts stem from different laboratories: compare values within a part only. Substitutions count along the parent as printed.

# Sample 1
# Target: CREBL2, bZIP domain (human)
# Method: DHFR protein complementation
# Sample: yeast
# Notes: single substitutions, most at no-binding floor
# Baseline: wild-type JUN-FOS pair
# Direction: higher = stronger binding
# Starting sequence: JUN, bZIP domain (human); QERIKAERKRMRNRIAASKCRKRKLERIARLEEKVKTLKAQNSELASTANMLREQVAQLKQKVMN; partner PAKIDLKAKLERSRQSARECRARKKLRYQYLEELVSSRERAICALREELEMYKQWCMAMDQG
Substitution,binding fitness
L45G,-1.51 natural log
V56S,-1.55 natural log
E33M,-1.56 natural log
A29L,-1.47 natural log
L31F,-1.52 natural log
L45W,-1.5 natural log
V35A,-1.53 natural log
T37D,-1.51 natural log
Q41D,-1.4 natural log
L38V,-1.41 natural log
S43M,-1.52 natural log
A40W,-1.52 natural log
L38Y,-1.56 natural log
A40P,-1.54 natural log
N42W,-1.56 natural log

# Sample 2
# Target: CCNF, cyclin fold, Cln2 fusion (human)
# Method: yeast growth competition, sequencing
# Sample: yeast
# Notes: strong parent motif
# Baseline: not given
# Direction: higher = stronger binding
# Starting sequence: BRCA2 docking peptide (human); PSIKRNLLNEFDR
Substitution,normalised enrichment score
R5N,-0.358
R13H,1.33
L8A,1.69
L7S,0.321
L7F,0.205
N6G,0.0344
I3K,1.79
K4P,0.368
N6R,2.3
R13V,1.94
F11N,0.437
N9I,4.25
N6H,1.52
R5S,1.4
P1R,5.43
P1H,3.66
N6Q,2
I3N,0.409
K4H,1.45
I3H,1.82
N6F,2.26
L8V,1.5
R13P,2.65
L8R,-0.124
I3F,1.74

# Sample 3
# Target: ABI1, truncated, D143A, DHFR fusion (Arabidopsis thaliana)
# Method: DHFR PCA, deep sequencing
# Sample: yeast
# Notes: methotrexate growth selection, single substitutions
# Added: (+)-ABA 2500 µM
# Baseline: wild-type fitted maximum
# Direction: higher = stronger binding
# Starting sequence: PYL1, truncated, DHFR fusion (Arabidopsis thaliana); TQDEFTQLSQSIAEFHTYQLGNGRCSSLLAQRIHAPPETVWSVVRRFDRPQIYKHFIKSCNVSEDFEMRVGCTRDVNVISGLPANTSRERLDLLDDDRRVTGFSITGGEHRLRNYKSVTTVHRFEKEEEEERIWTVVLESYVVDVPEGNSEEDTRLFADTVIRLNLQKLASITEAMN; partner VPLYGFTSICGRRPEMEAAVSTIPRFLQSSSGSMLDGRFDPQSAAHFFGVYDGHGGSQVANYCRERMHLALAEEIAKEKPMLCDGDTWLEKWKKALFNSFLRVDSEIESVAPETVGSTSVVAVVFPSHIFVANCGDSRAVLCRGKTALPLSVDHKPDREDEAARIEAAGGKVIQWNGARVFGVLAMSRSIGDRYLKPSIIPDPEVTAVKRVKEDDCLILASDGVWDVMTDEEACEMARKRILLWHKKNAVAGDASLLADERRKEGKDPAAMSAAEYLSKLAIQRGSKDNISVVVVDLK
Substitution,relative binding score [%]
G81S,87
W134G,100
G21E,96.5
S117C,92.5
S59N,91.9
S87I,49.7
A30C,97.5
I33V,97.6
H55M,97.5
D65E,95.2
T135L,11.6
Y53P,33.8
T120Q,83.9
Q31I,74.4
H122Q,79.5
L156N,92

# Sample 4
# Target: Ras GTPase-activating protein-binding protein 1, RRM domain (G3BP1, Homo sapiens, UniProt Q13283)
# UniProt Q13283, sequence (whole entry, looked up): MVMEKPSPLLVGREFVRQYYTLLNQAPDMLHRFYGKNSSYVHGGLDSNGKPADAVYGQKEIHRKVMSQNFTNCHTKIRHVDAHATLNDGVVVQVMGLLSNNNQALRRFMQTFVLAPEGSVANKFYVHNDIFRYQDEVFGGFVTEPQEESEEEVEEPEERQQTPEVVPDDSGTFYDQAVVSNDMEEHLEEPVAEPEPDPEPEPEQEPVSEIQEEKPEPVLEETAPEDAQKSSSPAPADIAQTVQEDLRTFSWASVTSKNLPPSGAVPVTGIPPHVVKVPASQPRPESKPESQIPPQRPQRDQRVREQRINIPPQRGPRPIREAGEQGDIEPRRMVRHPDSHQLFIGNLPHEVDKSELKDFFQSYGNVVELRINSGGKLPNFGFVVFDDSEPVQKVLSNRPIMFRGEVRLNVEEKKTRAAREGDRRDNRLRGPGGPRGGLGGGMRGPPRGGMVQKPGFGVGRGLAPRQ
# Method: RNA Bind-n-Seq
# Form: RNA
# Sample: in vitro
# Tested at: 1 µM
# Notes: whole 134-nt RNA, ends assumed
# Added: 150 mM KCl
# Baseline: input library
# Direction: higher = stronger binding
Oligonucleotide,log2 enrichment
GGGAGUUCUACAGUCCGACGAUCUCAAGUCCUGUGCUACACAUCGUAUGUACCGAAUCGGAAAAAGGAAAGGUUUGGAAAGUAUUAUGUUACGCCGUUCGGAUCUGCACUUCCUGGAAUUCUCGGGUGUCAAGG,-0.139
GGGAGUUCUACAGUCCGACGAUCUCCUCAAGUCCUGUGCUACACAUCGUAUGUACCGAAUCGUGUGUGUGUGUGUAAAGUAUUAUGUUACGCCGUUCGGAUCUGCACUUCCAGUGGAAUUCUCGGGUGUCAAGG,-0.00616
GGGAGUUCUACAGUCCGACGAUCAAGUCCUGUGCUACACAUCGUAUGUACCGAAUCGGUUUGGAAAAAGGUUUUUUUGGAAAGUAUUAUGUUACGCCGUUCGGAUCUGCACUUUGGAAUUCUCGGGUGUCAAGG,-0.271
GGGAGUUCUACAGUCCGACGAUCAGUCCUGUGCUACACAUCGUAUGUACCGAAUCGGGUGGGAAAAAAAGGGAAAAAGGGAAAGUAUUAUGUUACGCCGUUCGGAUCUGCACUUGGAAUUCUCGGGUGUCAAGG,0.591
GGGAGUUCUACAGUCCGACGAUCCUCAAGUCCUGUGCUACACAUCGUAUGUACCGAAUCGGAAGGGGAAGGAAGGGAAAGUAUUAUGUUACGCCGUUCGGAUCUGCACUUCCAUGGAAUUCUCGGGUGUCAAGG,-0.205
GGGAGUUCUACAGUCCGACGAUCAGUCCUGUGCUACACAUCGUAUGUACCGAAUCGGCCCCCGGCCCCCGGGCCCCCGGGGAAAGUAUUAUGUUACGCCGUUCGGAUCUGCACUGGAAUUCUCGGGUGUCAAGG,-0.573
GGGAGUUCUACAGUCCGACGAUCAAGUCCUGUGCUACACAUCGUAUGUACCGAAUCGGGGUUUGGGGUGGGGUUUGGGGAAAGUAUUAUGUUACGCCGUUCGGAUCUGCACUUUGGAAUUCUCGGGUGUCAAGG,0.542
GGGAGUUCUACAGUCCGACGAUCUGAAAAGAACUGCUCUCCAUGGAGAGAGUAACUCUGUCCUUAUUAUCGGACCCCGAGGAUCAGGAAAAACUAUGGUAAAAGCUGUUGAUUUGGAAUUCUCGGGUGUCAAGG,-0.106
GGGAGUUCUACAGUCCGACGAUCUUCAGUAAAAUGGCAGAAGAGAAACUGACCCACAAAAUGGAAGCUAAUAAAGAGAACCGAGAGGCACAAAUGGCUGCCAAACUGGAACGUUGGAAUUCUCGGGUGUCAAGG,-0.0858
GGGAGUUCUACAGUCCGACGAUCCUGUGCUACACAUCGUAUGUACCGAAUCGGGUUUUUUUGGUUUUUUUGGGGUUUUUUUGGGAAAGUAUUAUGUUACGCCGUUCGGAUCUGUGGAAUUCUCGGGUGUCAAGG,-0.144
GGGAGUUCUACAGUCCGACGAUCUAACUUUAGAGGAGGAUCUGAUGGAUAUGGCAGUGGACGAGGAUUUGGGGAUGGCUAUAAUGGGUAUGGAGGAGGACCUGGAGGUGGCAAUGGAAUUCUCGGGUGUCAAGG,-0.553
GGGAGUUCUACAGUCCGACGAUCUAACUUUAGAGGAGGAUCUGAUGGAUAUGGCAGUGGACGUGGAUUUGGGGAUGGCUAUAAUGGGUAUGGAGGAGGACCGGGAGGUGGCAAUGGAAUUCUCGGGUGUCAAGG,-0.232
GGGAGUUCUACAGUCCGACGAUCAGUCCUGUGCUACACAUCGUAUGUACCGAAUCAAACCCAAACCCAAACCCCCCCAAAAAAGUAUUAUGUUACGCCGUUCGGAUCUGCACUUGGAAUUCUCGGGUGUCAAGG,-0.191
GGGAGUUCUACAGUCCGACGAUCGUCCUGUGCUACACAUCGUAUGUACCGAAUCGGGGAAAGGGGAGGGGAAAAAAAGGGGAAAGUAUUAUGUUACGCCGUUCGGAUCUGCACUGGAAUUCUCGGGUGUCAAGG,0.775

# Sample 5
# Target: RNA binding protein fox-1 homolog 2, RRM domain, GST-SBP tag (RBFOX2, Homo sapiens, UniProt O43251-10, residues 100-194)
# Method: RNA Bind-n-Seq
# Form: RNA
# Sample: in vitro
# Tested at: 365 nM
# Notes: natural RNA segment, single round, ends assumed
# Baseline: no-protein control
# Direction: higher = stronger binding
# Construct (chain): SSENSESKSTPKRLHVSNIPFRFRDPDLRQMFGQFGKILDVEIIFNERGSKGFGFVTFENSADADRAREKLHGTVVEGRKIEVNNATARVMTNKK
Oligonucleotide,RBNS enrichment (R)
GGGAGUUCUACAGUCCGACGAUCGGCCUCGCCUGGAGCCUGAACGGAGCCCUCCUCUCCCACAGGCCCAAGAUAUAACCCACCAGUGCCUUUUGUCUUCCUGUCAGCUCUGUCAAUCACGCCUGUCCUCUCACUGGAAUUCUCGGGUGCCAA,1.01
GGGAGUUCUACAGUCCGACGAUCCAGUGUGGCUUGCUGCCAGGCUCAGGCCAGGUCUGGACAGCUCUCACUCUCCUCAAGCCAGGACUACCGACCAGCCGGCUAUGGGCACAUUACUCUGUGGCUGCUGGAUUUGGAAUUCUCGGGUGCCAA,0.23
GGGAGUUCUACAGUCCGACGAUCAGAAGAAUUGGAGCCAGACUUUAGUGAACUCAGCUCAGAGUUGUAAGGACCAGCACACUGGUGGCCAUUUUCUGCACAAGCAAAUGGAAUUGCUUUUUUUCAGCAUCCCAUGGAAUUCUCGGGUGCCAA,0.582
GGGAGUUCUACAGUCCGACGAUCCAAGGUAGCCAGGCCAGCCAGGAGCGCGGGUCUUUGAGAGACUUCACCGGAAUCUUUCCCCCUUCGUGUGUUUAGUGGAAACAUCCCCCCUCCUAAACAAACUAACAAAAUGGAAUUCUCGGGUGCCAA,0.444
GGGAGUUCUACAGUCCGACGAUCGCUGCCUGACCAUCCAGUGACAUGAUCCUGACCUUUACCUAGGAUUCCUCCUGCUCCAAACUUUGCCCAUCCUCUUUGCCCCCUCAGGAGUGCUGAGGGCCAGUGUUGACUGGAAUUCUCGGGUGCCAA,0.827
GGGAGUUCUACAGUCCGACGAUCAAACAGGCCCCAAGGGCCCUGAGCCUCCAGCCCAAACCCUUAGACCUCUGGGAUCACGUUGAGUUCUAUUUAUUUAUUUACUUAUUUAUUUAUUUGUACCCACCCUUCCCUGGAAUUCUCGGGUGCCAA,0.39
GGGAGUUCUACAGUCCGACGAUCGCAGGAAUCCCUUCCCAUCUGCUUUGUGAAGGGUCCCAUACAGGUGUAUCUAGACUUCAAGGACAGGGUUUGUCUCACAGGAUUGUCACUUAGGAGAUGAAAGAAUAUUAUGGAAUUCUCGGGUGCCAA,0.308
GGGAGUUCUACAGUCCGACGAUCCCUGGUGCCUGGCUCUUUCGUCACCCUUGGACAAGACAAACCAAGUCGGAACAGCAGAUAACAAUGCAGCAAGGCCCUGCUGCCCAAUCUCCAUCUGUCAACAGGGGCGUUGGAAUUCUCGGGUGCCAA,0.35
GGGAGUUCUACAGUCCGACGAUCGGGGAUAGCAAAGUAGCACUUUACAAAUGGCCAUGGCGUUCAUCCCAAGAGCCACCAGCUCUUCUUACCAUACCACUUCCUAACUCCUGUAAGGAUGAGCCCAGUUAGUAUGGAAUUCUCGGGUGCCAA,0.922
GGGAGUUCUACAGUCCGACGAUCUCAUAGCUCAAGAAUUGUUAGCAAAUGACAGAUUUCUGUAAGCCUAUAUAUAUAGUCAAAUCGAUUUAGUAAGUAUGUUUUUUAUGUUCCUCAAAUCAGUGAUAAUUGGUUGGAAUUCUCGGGUGCCAA,0.509
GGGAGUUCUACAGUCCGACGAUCUUCCUCUCACUUUCACACCUUUAAUUUAAAUCUAUUUAAGAGAACCAUGGUUCUGAUUGUUGUGUAUAUUUUUCUAAAGGCUGAAUAAAGCUAUCUAUGAAUGUGAACAAUGGAAUUCUCGGGUGCCAA,1.46
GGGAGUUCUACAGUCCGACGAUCGCUUCACCAGGUGCAGGCUGCUAUGGGCUUGUGGAAACCACAGGUACAGGUGGGAUUUCAUGGGUCCAUGUGUUACAAAAAUAAGAAUUGGAGCAUUAACUUGAAAUUGUUGGAAUUCUCGGGUGCCAA,0.414

# Further values, each from its own experiment
Substance,target,test,test system,conditions,how to read,measurement,value
"PhoQ, residues 284 288 289 292 302 303 SLSLLA","PhoP, residues 12 14 15 18 19 GQALL (Escherichia coli, UniProt P23836)","Sort-seq, refers to: YFP reporter",E. coli,"PhoQ-PhoP variant library, added: 10 µM Mg2+","baseline: high Mg2+ state, higher = stronger signaling",fold induction,11

# Repeated from above (sample 3):
Substitution,relative binding score [%]
T120Q,83.9
S59N,91.9
Q31I,74.4
S117C,92.5
I33V,97.6
L156N,92
H122Q,79.5
T135L,11.6
D65E,95.2
W134G,100
A30C,97.5
S87I,49.7
Y53P,33.8
